Assay results collected from several papers.
Lines come from different studies, so protocols differ. Values joined by “and” are separate records of one study, mostly repeats; a detail may differ. Numbers after ± are the reported error.
CXCR4: C-X-C chemokine receptor type 4 (CXCR4, Homo sapiens, UniProt P61073)
GAP50: Glideosome-associated protein 50 (GAP50, Plasmodium falciparum, UniProt Q8I2X3)
FFAR4: Free fatty acid receptor 4 (FFAR4, Homo sapiens, UniProt Q5NUL3)
Kir3.1/Kir3.2: Kir3.1/Kir3.2 (Homo sapiens, UniProt P48051+P48549)
PDE1C isoform PDE1C2: Dual specificity calcium/calmodulin-dependent 3',5'-cyclic nucleotide phosphodiesterase 1C, isoform PDE1C2 (PDE1C, Homo sapiens, UniProt Q14123)
NADH dehydrogenase [ubiquinone] iron-sulfur protein 7, mitochondrial/NADH dehydrogenase [ubiquinone] iron-sulfur protein 2, mitochondrial/MT-ND1: NADH dehydrogenase [ubiquinone] iron-sulfur protein 7, mitochondrial/NADH dehydrogenase [ubiquinone] iron-sulfur protein 2, mitochondrial/MT-ND1 (Homo sapiens, UniProt O75251+O75306+P03886)
TRPM8: Transient receptor potential cation channel subfamily M member 8 (TRPM8, Homo sapiens, UniProt Q7Z2W7)

SMILES | target | assay | system | conditions | how to read | endpoint | value
Cc1ccccc1C(=O)NCc1ccc(CNS(=O)(=O)c2ccccc2)cc1 | CXCR4 | binding, inhibitor, competitive binding | MDA-MB-231 | together with: biotinylated TN14003 |  | EC | 1 nM
O=C(NO)c1ccc(CN2CCCCc3ccccc32)c(F)c1 | benzodiazepine site, rat brain | radioligand binding |  | 10 µM |  | inhibition of radioligand binding | 21.4%
c1ccc(C[C@@H]2CN(c3nccc(Oc4ccc(-n5ccnc5)cc4)n3)CCN2)cc1 | GAP50 | binding, surface plasmon resonance |  | 1:1 binding model |  | kon | 15500 M⁻¹ s⁻¹
Cc1n[nH]c(CC(=O)N2Cc3c(-c4ccc(C(=O)N5CCCc6ccccc65)cc4)cnn3C[C@H]2C)n1 | PRKN (Human, UniProt O60260) | nanoDSF |  | 200 µM, 2 µM parkin |  | Tm | 54 °C
NCCCS(=O)(=O)O | SLC6A6 (Homo sapiens, UniProt P31641, Y138A) | binding, microscale thermophoresis |  | 244 nM, room temperature, together with: 50 nM labelled protein | higher = more binding | normalised MST signal | -0.0204
CN(CCCCCCNC(=O)CNc1cccc2c1C(=O)N(C1CCC(=O)NC1=O)C2=O)Cc1cn(Cc2ccc(C(=O)NO)cc2)c2ccccc12.O=C(O)C(F)(F)F (stereo not drawn) | HDAC10 (Homo sapiens, UniProt Q969S8) | degrader, western blot | MM1.S | 5 µM, 24 h |  | degradation | 94%
COc1cc2c(cc1OC)CN(CCCNC(=O)c1ccc(C(=O)c3ccc([N+](=O)[O-])cc3)cc1)CC2 | TMEM97 (Homo sapiens, UniProt Q5BJF2) | radioligand binding | RT-4 cell membranes |  | reference: sigma1 Ki over sigma2 Ki | Ki ratio | > 8.31
[O-][S+]1CCCCS1 (stereo not drawn) | SOD1 (Homo sapiens, UniProt P00441, G94A) | intact protein LC-MS | SOD1 G93A transgenic mice, whole blood | intravenous, 10 mg/kg, 168 h, mean of two mice |  | target engagement | 5.26%
Nc1ncnc2c1nc(Sc1ccc(Cl)cc1)n2[C@@H]1O[C@@H]2COP(=O)(O)O[C@H]2[C@H]1O | anti-cAMP antibody | antibody binding, competitive cAMP EIA |  | concentration not given, acetylated samples | reference: EC50 cAMP over EC50 cpd, higher = stronger binding | relative binding affinity | 0.0005
O=C(NC1CCC1)c1ccc2nc(-c3cccc(NS(=O)(=O)NCCN4CCCCC4)c3)cn2c1 | Protein ENL (MLLT1, Homo sapiens, UniProt Q03111) | degrader, immunoblot, measured: MLLT1 |  | 10 µM, 8 h | reference: DMSO control | protein level | 5%
CCCCCNc1cc(=O)[nH]c(=O)[nH]1 | FFAR4 | agonist, β-arrestin recruitment | CHO cells | 10 µM |  | activation | 1%
c1coc(CNc2nc(N3CCCCC3)nc3ccccc23)c1 | GAP50 | binding, surface plasmon resonance |  | 1:1 binding model |  | koff | 0.95 s⁻¹
O=C(COc1cccc(Cl)c1Cl)Nc1cc(C2CCC2)nn1CC(F)(F)F | Kir3.1/Kir3.2 | thallium flux, activator | HEK293 |  | reference: standard compound | Emax | 34%
O=C1O/C(=C\c2cc(F)ccc2OCCN2CCOCC2)c2cc(Cc3cccc(F)c3)[nH]c(=O)c21 | PDE1C isoform PDE1C2 | enzyme activity, inhibitor |  | together with: 3H-cGMP substrate |  | ligand efficiency | 0.31
O=C(Nc1nnc(-c2ccc(Cl)s2)o1)c1ccc(Cl)s1 | GAP50 | binding, surface plasmon resonance |  | 1:1 binding model |  | kon | 37200 M⁻¹ s⁻¹
CC1=NN(c2ccccc2)C(=O)C1=NNc1ccc(S(N)(=O)=O)cc1 | Alpha-amylase (Bos taurus, UniProt Q3MHH8) | enzyme activity, inhibitor, glucose oxidase |  | 10 µg/mL, together with: dextrin |  | inhibition | 22.649 ± 0.000136%
NC(=O)NOCCCCCCCCCCCCCC[P+](c1ccccc1)(c1ccccc1)c1ccccc1.O=C([O-])C(F)(F)F | NADH dehydrogenase [ubiquinone] iron-sulfur protein 7, mitochondrial/NADH dehydrogenase [ubiquinone] iron-sulfur protein 2, mitochondrial/MT-ND1 | complex I-dependent respiration, Seahorse XF96 | HCT-116 | 0.5 µM, 24 h | reference: control | oxygen consumption rate | 64.3 ± 3.13%
CCN1CCC[C@H]1CNC(=O)c1c(O)c(Cl)cc(Cl)c1OC | G-protein coupled receptor family C group 5 member B (GPRC5B, Homo sapiens, UniProt Q9NZH0) | β-arrestin recruitment, TANGO luminescence, measured: GPRC5B |  | concentration not given | reference: basal luminescence | log2 fold change | 0.271
CC[C@@H]1[C@H](F)C(=O)N[C@@H]1COc1nccc2cc(C(N)=O)c(OC)cc12 | CDK9 (Homo sapiens, UniProt P50750) | ATP-site probe binding, ActivX profiling | THP-1 cell lysate | 0.01 mM, Lys2 site |  | inhibition | 16.2%
O=c1nc(SCc2cc(F)cc(C(F)(F)F)c2)nc(SCc2ccc3nc(Cl)ccc3c2)[nH]1 | TOP2A (Homo sapiens, UniProt P11388) | DNA cleavage |  | 7.8 µM |  | mean linear DNA | 0%
Nc1nc2ccc(F)cc2[nH]1 | HVCN1 (Homo sapiens, UniProt Q96D96) | proton current, inhibitor, inside-out patch clamp | Xenopus oocytes | dimeric channel |  | Hill coefficient | 1.06 ± 0.06
CC(C)NCCCC[C@@H]1NC(=O)[C@H](Cc2ccc(O)cc2)NC(=O)[C@H](Cc2ccccc2)NC(=O)CC[C@H](C(=O)N[C@@H](CCCCNC(C)C)C(=O)N[C@@H](CCCCNC(=O)[C@H](CCC(=O)O)NC(=O)[C@H](CCC(=O)O)NC(=O)[C@H](CCC(=O)O)NC(=O)CN2CCN(CC(=O)O)CCN(CC(=O)O)CC2)C(N)=O)NC(=O)CNC(=O)[C@H](Cc2ccc3ccccc3c2)NC(=O)[C@@H](CCCNC(=N)N)NC1=O [fluorine-18 labelled] | CXCR4 | radioligand cell uptake | MM.1S cells |  |  | internalized fraction | 0.07%
C[S+](CC[C@H](N)C(=O)[O-])C[C@H]1O[C@@H](n2cnc3c(N)ncnc32)[C@H](O)[C@@H]1O (stereo partly drawn) | KMT2C (Homo sapiens, UniProt Q8NEZ4) | substrate, enzyme-coupled methylation |  | together with: H3 peptide 1600 µM |  | apparent Vmax | 5 ± 0.4 µM/min
Cc1nc(-c2ccccc2)c(-c2ccncc2)o1 | TRPM8 | antagonist | HEK293 | 5 µM | reference: control | remaining activity | 100 ± 5.78%
O=c1cc(NCCc2ccccc2F)[nH]c(=O)[nH]1 | FFAR4 | antagonist, β-arrestin recruitment | CHO cells | 10 µM, together with: 4 µM TUG-891 |  | inhibition | 15 ± 4%
COc1ccc(F)cc1C(=O)NCc1ccc(-c2nn([C@@H](C)C(F)(F)F)c(N)c2C(N)=O)cc1 | BTK (Homo sapiens, UniProt Q06187) | surface plasmon resonance |  |  |  | dissociation half-life | 2.4 h

SMILES | target | assay | system | conditions | how to read | endpoint | value
CC(=O)Nc1ccc(O)cc1 | BRD4 (Homo sapiens, UniProt O60885) | 19F NMR, measured: tyrosine 65 |  | 746 µM | reference: free protein | chemical shift change | 0.03 ppm
O=c1cc(NCc2cccc3ccccc23)[nH]c(=O)[nH]1 | FFAR4 | agonist, β-arrestin recruitment | CHO cells | 10 µM |  | activation | 1%
NC(=O)NO | NADH dehydrogenase [ubiquinone] iron-sulfur protein 7, mitochondrial/NADH dehydrogenase [ubiquinone] iron-sulfur protein 2, mitochondrial/MT-ND1 | complex I-dependent respiration, Seahorse XF96 | HCT-116 | 1000 µM, 24 h | reference: control | oxygen consumption rate | 80.2 ± 10.8%
N#Cc1ccsc1NC(=O)COc1cccc(Cl)c1Cl | Kir3.1/Kir3.2 | thallium flux, activator | HEK293 |  | reference: standard compound | Emax | < 10%
CCNc1nc(C#N)nc(Nc2ccccc2)n1 | 3-oxoacyl-[acyl-carrier-protein] reductase FabG (fabG, Pseudomonas aeruginosa, UniProt O54438) | enzyme activity, inhibitor, NADPH fluorescence |  | reverse reaction, together with: 3-OH-decanoyl-NAC, NADP |  | Hill slope | 1.5
NCc1ccc(C(F)(F)F)cc1 | Maoa (Rattus norvegicus, UniProt P21396) | substrate |  | pH 7.5, 25 °C |  | kcat of deuterated substrate | 0.667 ± 0.0117 s⁻¹
NC(=O)c1ccc(-c2nc(-c3ccc4c(c3)OCCO4)c(-c3ccccn3)[nH]2)cc1 | TRPM8 | antagonist | HEK293 | 5 µM | reference: control | remaining activity | 105 ± 13.4%
O=c1cc(NCCc2cccc(F)c2)[nH]c(=O)[nH]1 | FFAR4 | agonist, β-arrestin recruitment | CHO cells | 10 µM | reference: 30 µM TUG-891 | agonist effect | 0%
Nc1ncnc2c1ncn2[C@@H]1O[C@H](COP(=O)(O)OP(=O)(O)OP(=O)(O)O)[C@@H](O)[C@H]1O | P2X purinoceptor 7 (P2rx7, Rattus norvegicus, UniProt Q64663) | ion current, two-electrode voltage clamp | Xenopus laevis oocytes | 3000 µM |  | normalized current | 1 and 0.97
COC(=O)c1cn(C)c2ccc(-c3cccnc3)cc12 | Nuclear receptor subfamily 4 group A member 2 (Homo sapiens, UniProt P43354) | reporter gene, full-length homodimer NurRE reporter |  | 10 µM | reference: vehicle | activation | 0.96 fold
CN(C)c1ccc2nc3ccc(=[N+](C)C)cc-3sc2c1 | MAPT (Homo sapiens, UniProt P10636) | fibril formation, ThT fluorescence |  | 5-fold of tau, at plateau, together with: wild-type tau 10 µM, heparin | reference: untreated | ThT fluorescence | 2 ± 6%
CCOc1nc2cccc(C(=O)O)c2n1Cc1ccc(-c2ccccc2-c2nnn[nH]2)cc1 | LCN2 (Homo sapiens, UniProt P80188, C107S) | NMR line shape analysis |  | three-state model, state 2 |  | koff | 21 ± 0.6 s⁻¹
COc1cc(Nc2ncc3c(n2)-c2ccc(Cl)cc2C(c2c(F)cccc2OC)=NC3)ccc1C(=O)O | MAPK1 | kinase activity |  | 1 µM |  | remaining activity | 105%
O=C(NC1CC1)c1ccc(N2CCOc3ccc(Cl)cc32)s1 | GAP50 | binding, surface plasmon resonance |  | 1:1 binding model |  | kon | 10300 M⁻¹ s⁻¹
N#Cc1ccsc1NC(=O)COc1cc(Cl)ccc1Cl | Kir3.1/Kir3.2 | thallium flux, activator | HEK293 |  | reference: standard compound | Emax | < 10%
C=CC(=O)N1CCC(COCC(=O)N2CCN(c3nc(-c4cnc(N)nc4C(F)F)nc(N4CCOC[C@@H]4C)n3)CC2)CC1 | WNK3 (Homo sapiens, UniProt Q9BYP7) | KINOMEscan |  | 1 µM |  | remaining binding | 93%
Cc1cc2c(c(=O)[nH]1)C(=O)O/C2=C\c1cc(F)ccc1OC(C)C | PDE1C isoform PDE1C2 | enzyme activity, inhibitor |  | together with: 3H-cGMP substrate |  | binding free energy | -10.6 kcal/mol
CCCNc1cc(=O)[nH]c(=O)[nH]1 | FFAR4 | agonist, β-arrestin recruitment | CHO cells | 10 µM |  | activation | 0%
Cc1cncc2cccc(S(=O)(=O)N3CCCN(C(=O)CN)C[C@@H]3C)c12 | TRPM8 | antagonist | HEK293 | 5 µM | reference: control | remaining activity | 90.6 ± 6.56%
O=c1cc(NCCCCCCO)[nH]c(=O)[nH]1 | FFAR4 | antagonist, β-arrestin recruitment | CHO cells | 10 µM |  | inhibition | 13 ± 1%
CCCCC[C@H](O)/C=C/[C@H]1[C@H](O)CC(=O)[C@@H]1C/C=C\CCCC(=O)O | PTGER1 (Homo sapiens, UniProt P34995, Q298A) | IP1 accumulation, agonist | AD293 | 1 h, EP1 Q298A mutant |  | Emax | 40.5 ± 6.34%
O=c1cc(NCCc2ccccc2)[nH]c(=O)[nH]1 | FFAR4 | antagonist, β-arrestin recruitment | CHO cells | 10 µM, together with: 4 µM TUG-891 |  | inhibition | 21 ± 9%
Nc1nc2c(ncn2[C@@H]2O[C@H](COP(=O)(O)O)[C@@H](O)[C@H]2O)c(=O)[nH]1 | GUK1 (Homo sapiens, UniProt Q16774, S13A) | binding, ITC |  |  |  | ΔH | -6.58 ± 0.38 kcal/mol
O=Nc1c(NCCc2ccccc2)[nH]c(=O)[nH]c1=O | FFAR4 | agonist, β-arrestin recruitment | CHO cells | 10 µM |  | activation | 1 ± 1%
NC(=O)NOCCCCCCCCCCCCCCCC[P+](c1ccccc1)(c1ccccc1)c1ccccc1.O=C([O-])C(F)(F)F | NADH dehydrogenase [ubiquinone] iron-sulfur protein 7, mitochondrial/NADH dehydrogenase [ubiquinone] iron-sulfur protein 2, mitochondrial/MT-ND1 | complex I-dependent respiration, Seahorse XF96 | HCT-116 | 1 µM, 24 h | reference: control | oxygen consumption rate | 43 ± 3.82%

A few entries again:
SMILES | target | assay | system | conditions | how to read | endpoint | value
Cc1cc2c(c(=O)[nH]1)C(=O)O/C2=C\c1cc(F)ccc1OC(C)C | PDE1C isoform PDE1C2 | enzyme activity, inhibitor |  | together with: 3H-cGMP substrate |  | binding free energy | -10.6 kcal/mol
Cc1cncc2cccc(S(=O)(=O)N3CCCN(C(=O)CN)C[C@@H]3C)c12 | TRPM8 | antagonist | HEK293 | 5 µM | reference: control | remaining activity | 90.6 ± 6.56%
O=C(NC1CC1)c1ccc(N2CCOc3ccc(Cl)cc32)s1 | GAP50 | binding, surface plasmon resonance |  | 1:1 binding model |  | kon | 10300 M⁻¹ s⁻¹
NC(=O)c1ccc(-c2nc(-c3ccc4c(c3)OCCO4)c(-c3ccccn3)[nH]2)cc1 | TRPM8 | antagonist | HEK293 | 5 µM | reference: control | remaining activity | 105 ± 13.4%
O=c1cc(NCCc2ccccc2)[nH]c(=O)[nH]1 | FFAR4 | antagonist, β-arrestin recruitment | CHO cells | 10 µM, together with: 4 µM TUG-891 |  | inhibition | 21 ± 9%
